Results from different studies.
Each numbered part is a random draw from the data of one study; scales do not carry over between parts. Positions count from the first letter of the parent shown.

Sample 1
Target: RNA binding protein fox-1 homolog 2, RRM domain, GST-SBP tag (RBFOX2, Homo sapiens, UniProt O43251-10, residues 100-194)
Technique: RNA Bind-n-Seq
Form: RNA
Matrix: in vitro
Tested at: 365 nM
Setting: natural RNA segment, single round, ends assumed
Reference: no-protein control
Reading: higher = stronger binding
All sequences stand within: GGGAGUUCUACAGUCCGACGAUC … UGGAAUUCUCGGGUGCCAA
Residues (chain): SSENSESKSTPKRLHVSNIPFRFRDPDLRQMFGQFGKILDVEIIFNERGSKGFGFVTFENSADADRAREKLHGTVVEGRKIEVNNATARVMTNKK
Under “RBNS enrichment (R)”, `GUUAGAAUGAUUCCAUCACUUAUACAUUGUUUAAAAUGCUAAUAAAGUAACUUGCUUUGUAAGAAUUCAUUAGAGUGGACUUUUGUUAUCUCCAUUGUGCAUUUGAUAAA` is recorded as 0.501.
`UAAGCGAAGGGAUUAUUAGCAAGGUAAUGCCUGUGUAUGGUCAUAUAGGCACAAAUGCAGAACACCCAGCACAUUGGAGAGACGACCACUUCCUCCUUUAAAAUGUCCUA` — result for “RBNS enrichment (R)”: 0.345.
Under “RBNS enrichment (R)”, `AGCAGUGUGGUUACUUCUUUCUUCUGCCUCGACUCACAUGGCUUCUCCCCACGAAGGUCCCAGGGUGGCCAUUUAUACAAUCCAUUUCUGUCCUCUUUAUGGAAUGUAGU` is recorded as 0.302.
For `UUAUUUCAAGAAUAUGGCCAUCACUGUUCUCUUAUACAUGUUCUUUUCCAUAUUUUAAUUAUCAAAAUGACCAUAUCAGACUUAUUCCUGGGUAAAUUGCAUUUCAAACU`, “RBNS enrichment (R)” read 0.666.
Under “RBNS enrichment (R)”, `GUGAGUUUGUCUUUGUUACAUUCCAGUGUUUCUGCCUCUUGGCAUGCUUAAAGCACGGCUUACUUCAUCUGCUCCUUACACACUAAAAUGCUGUUAGUGUGCUCAACUAC` is recorded as 0.496.
`ACCCAGAAAGACUGGAGAAGGUAUGUGCUUUAAGUGCUGCUCUACCUGAAAAGAAAUCCUUUAAAUUACCUAUGGAAGUGAUGUCCUCAGAUAAUCUUAAUGACUAUUUU` — result for “RBNS enrichment (R)”: 0.232.
For `GUACCAGUAUGGCGACGACCAGGGCAUUGAUUAUAGAGUCACACACAGGAGCGCAGUAUUUAGUCCAUUGUUUUAUCCAGUGAGACCCAAGCUAGCCUUGAAUAAUUCUU`, “RBNS enrichment (R)” read 0.274.
`UCUCCUUCUCUGCUCUUAAACCUGGAGACGCUUGCUCUGCCUUCUCCCCUAUCACUUCAAGUGUUUAUACCUGAGUUUCUUAGGAAGAAAGUAAGUCUGAUGGCUUGUUG`: “RBNS enrichment (R)” 6.94.
Under “RBNS enrichment (R)”, `UUUUAUAUCUUGGCAGGUAGGAAUAUUAUAUUUGGAUGCAGAGUUCAGGGAAGAUAAGUUGGAAACACUAAAUGUUAAAGAUGUAGCAAACCCUGUCAAACAUUAGUACU` is recorded as 0.534.
Under “RBNS enrichment (R)”, `CUUUCAAGGUACAAAAGUAUGUCUUUUAAAAUGGAAGUAACGUUUGUUUAGCUAGUGAAUGUGACAAUAUAUUUUAUGUAUAUAAUGAGUCUAAUGUAAUUUUGAUCAAC` is recorded as 1.08.
For `CUCCCGGGGCCCCCACUGUGGAGAUAAGAAGGGGAUGGAAUGGGGGAAGAGGAGGAGCAGGAGGCCCUCAUCCUUCUGCUGCCCUGGGGUUGGGGCCUCACCCCUCUGGA`, “RBNS enrichment (R)” read 0.935.
Under “RBNS enrichment (R)”, `GCCCUUUUAUUUAUUGGACCAGAAACUCGCAUAUCACUUCCAGAGGAACAGGCCUCAGGAAUAUUUCUCCCUGGCCAGCCCUGCACUAGCUGGGGCAGGGGCAGAGGACA` is recorded as 0.337.

Sample 2
Target: Ras GTPase-activating protein-binding protein 1, RRM domain (G3BP1, Homo sapiens, UniProt Q13283)
Chain of UniProt Q13283 (whole entry, looked up): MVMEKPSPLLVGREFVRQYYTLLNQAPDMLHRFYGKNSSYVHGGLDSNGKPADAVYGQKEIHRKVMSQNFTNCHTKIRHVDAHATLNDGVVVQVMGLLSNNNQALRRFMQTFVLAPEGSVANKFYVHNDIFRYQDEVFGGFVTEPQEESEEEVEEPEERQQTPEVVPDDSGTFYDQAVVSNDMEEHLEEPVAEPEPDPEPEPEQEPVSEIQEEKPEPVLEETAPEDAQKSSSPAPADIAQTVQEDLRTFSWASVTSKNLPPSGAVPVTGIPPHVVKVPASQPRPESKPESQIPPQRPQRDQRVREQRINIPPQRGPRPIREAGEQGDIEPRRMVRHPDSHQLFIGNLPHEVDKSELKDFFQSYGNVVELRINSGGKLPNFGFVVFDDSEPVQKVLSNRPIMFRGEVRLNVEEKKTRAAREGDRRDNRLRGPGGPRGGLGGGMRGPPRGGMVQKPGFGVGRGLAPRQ
Technique: RNA Bind-n-Seq
Form: RNA
Matrix: in vitro
Tested at: 1 µM
Setting: whole 134-nt RNA, ends assumed
With: 150 mM KCl
Reference: input library
Reading: higher = stronger binding
All sequences stand within: GGGAGUUCUACAGUCCGACGAUC … UGGAAUUCUCGGGUGUCAAGG
`AACUAAUACUCUUAAAUGGUCUUUCAGUAUAGUGGUUCUUACGUAGUUUAACAUAGCUAUAAAUUGAGUUUAACAAUUUAUAAACUCAAG` has a log2 enrichment of -0.202.
For `CUCAAGUCCUGUGCUACACAUCGUAUGUACCGAAUCGGCCCGGCCCGGGCCCGGAAAGUAUUAUGUUACGCCGUUCGGAUCUGCACUUCC`, the log2 enrichment was -0.614.
For `ACCAUGCAGGUGGGCAUCUAUGGGAAGUGGGGCAAGGGGGGGAUAGGGAGGGGGGUAACACUUUGGGAACAGGUGGUCCCAGGUCGUUUC`, the log2 enrichment was -0.529.
`UCCAUGCAGGUGGGCAUCUUUGGGAAGUGGGGCAAGGGGGGGAUAGGGAGGGGGGUAACACUUUGGGAACAGGUGGUCCCAGGUCGUUUC` gave a log2 enrichment of -0.538.
With `UCAAGUCCUGUGCUACACAUCGUAUGUACCGAAUCGGUUUGGGGUUUGGUUUGGAAAGUAUUAUGUUACGCCGUUCGGAUCUGCACUUCC` the log2 enrichment was -0.273.
`UCCUGUGCUACACAUCGUAUGUACCGAAUCGUGUGUGUGUGUGUGUGUGUGUGUGUGUGAAAGUAUUAUGUUACGCCGUUCGGAUCUGCA` has a log2 enrichment of 0.0869.
For `UUUAUCAUGAGGAGCUCAACGCGCCCAUACGGAGAAACAAAGAAGAGCCCAAGGCCCGGCCCUUGAGAGUAGGUGACACGGAGAAGCCAG`, the log2 enrichment was -0.193.
`GCAGGAAGUAAAAACAAAUGGAAAUGCUUCGGAUAGUGGCAGGGGUGGGGGUUGCUAAGGAAAGGGUGGAAAGGGAGUGGGUAAAGAGUU` has a log2 enrichment of 0.827.
`CCUGUGCUACACAUCGUAUGUACCGAAUCGGGGUUUUUUUGGGGAAAAAGGGGUUUGGGGAAAGUAUUAUGUUACGCCGUUCGGAUCUGC` gave a log2 enrichment of 0.358.
The log2 enrichment of `CCUGUGCUACACAUCGUAUGUACCGAAUCGGGGUUUGGGGAAAAAGGGGAAAAAAAGGGGAAAGUAUUAUGUUACGCCGUUCGGAUCUGC` is reported as 0.81.
The log2 enrichment of `GAAACUACCCGUGUGUAAAAAGAAGAUUGGCUUAAAAUGGCUACUGUGAUGGGAACAGUGUCUUAGGGAGAUGCAGCUUGGACUUGAGGU` is reported as -0.00836.
`CUCAAGUCCUGUGCUACACAUCGUAUGUACCGAAUCGGAAAGGGAAAGGAAAGGAAAGUAUUAUGUUACGCCGUUCGGAUCUGCACUUCC` has a log2 enrichment of -0.272.
`CCUGUGCUACACAUCGUAUGUACCGAAUCGGGUUUUUUGGGUUUUUUGGGGUUUUUUGGGGAAAGUAUUAUGUUACGCCGUUCGGAUCUG` gave a log2 enrichment of -0.154.
The log2 enrichment of `CUGUGCUACACAUCGUAUGUACCGAAUCGGGGUUUUUGGGGAAAAAGGGGUUUUUUUGGGGAAAGUAUUAUGUUACGCCGUUCGGAUCUG` is reported as 1.07.

Sample 3
Target: CCNF, cyclin fold, Cln2 fusion (human)
Technique: yeast growth competition, sequencing
Matrix: yeast
Setting: strong parent motif
Reference: not given
Reading: higher = stronger binding
Parent: RB1 docking peptide (human); PKPLKKLRFDIEG
`L7P`: “normalised enrichment score” 0.365.
`K6S`: “normalised enrichment score” 1.23.
For `P3R`, “normalised enrichment score” read 1.63.
`K2T` — result for “normalised enrichment score”: 0.591.
Under “normalised enrichment score”, `G13W` is recorded as 1.51.
`I11P` — result for “normalised enrichment score”: 1.3.
`D10I`: “normalised enrichment score” 0.672.
For `G13L`, “normalised enrichment score” read 0.584.
`R8G`: “normalised enrichment score” 0.563.
`P1K`: “normalised enrichment score” 1.81.
`D10Y` — result for “normalised enrichment score”: 2.4.
`P1M`: “normalised enrichment score” 1.1.
Under “normalised enrichment score”, `K5T` is recorded as 1.54.
Under “normalised enrichment score”, `D10T` is recorded as 1.03.
Under “normalised enrichment score”, `K2P` is recorded as 0.459.
Under “normalised enrichment score”, `K6T` is recorded as 1.55.
`F9A` — result for “normalised enrichment score”: 1.76.
`K2V`: “normalised enrichment score” 1.35.
`K6D` — result for “normalised enrichment score”: -0.26.
Under “normalised enrichment score”, `D10P` is recorded as 1.16.
`P3D`: “normalised enrichment score” 0.848.
`K2H` — result for “normalised enrichment score”: 0.52.
Under “normalised enrichment score”, `P3E` is recorded as 1.48.
`K6Q`: “normalised enrichment score” 0.763.
Under “normalised enrichment score”, `P3F` is recorded as 1.68.

Sample 4
Target: Centromere-binding protein 1, full length, His-tagged (CBF1, Saccharomyces cerevisiae, UniProt P17106, residues 1-351)
Chain of UniProt P17106 (whole entry, looked up): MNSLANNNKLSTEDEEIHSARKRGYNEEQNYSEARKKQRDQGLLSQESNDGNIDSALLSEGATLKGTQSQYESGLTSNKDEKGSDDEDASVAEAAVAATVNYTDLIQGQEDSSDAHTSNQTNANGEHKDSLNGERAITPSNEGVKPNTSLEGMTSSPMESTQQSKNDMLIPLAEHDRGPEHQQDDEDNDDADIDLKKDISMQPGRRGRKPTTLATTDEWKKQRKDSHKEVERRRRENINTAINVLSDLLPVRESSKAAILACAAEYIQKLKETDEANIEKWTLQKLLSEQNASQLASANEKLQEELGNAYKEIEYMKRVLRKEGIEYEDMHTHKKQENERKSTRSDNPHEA
Technique: competition protein-binding microarray
Form: double-stranded DNA, one strand shown
Matrix: in vitro
Tested at: 2 µM
Setting: whole 60-bp probe, lowest competitor level
With: Pho4 competitor, 0.05 µM
Reading: higher = stronger binding
All sequences stand within: … GTCTTGATTCGCTTGACGCTGCTG
For `CTATTGCAAGAACTGGCCGTGATGGCAGAGTATCGG`, the fluorescence intensity was 66.8 a.u.
With `TTTTTCCAAGAGCTTCATATGCAAGCCCGAATCATT` the fluorescence intensity was 70.5 a.u.
The fluorescence intensity of `TGCGCAACAACTTGTATCGTGGGTGTATGTCTAGAA` is reported as 72.1 a.u.
With `CCGAAAAGGGCCCATCACGGCACATCTGAAGAAAAG` the fluorescence intensity was 67.5 a.u.
The fluorescence intensity of `TTCCAGTGTTTCTTATCCGTGATGGTTTAATGGTCA` is reported as 85.1 a.u.
With `ATGGGGGCATAATCGCACGATGTGCAAGCTGAGTGT` the fluorescence intensity was 94.3 a.u.
`AAAGCGGTAATTTGTGGCGTGGGTGCAGATATCTAT` has a fluorescence intensity of 82.1 a.u.
For `TCGATTATGGTATTTCTCGTGATGGGCCGGAAAGTT`, the fluorescence intensity was 176 a.u.
For `CGTCCTAGTGATTGTCACAGTACTTCCATGAGGAAG`, the fluorescence intensity was 95.4 a.u.
`AAAGTAGTATTCCGTCACGTGATGGTGATCCAATTA` gave a fluorescence intensity of 11500 a.u.
The fluorescence intensity of `AAATTACTAAGTTGCGGTGTGGGTGACGCCGTATGA` is reported as 74.7 a.u.
`CGGGGTTAAGTTTGTACTGTGGGTGGCTTGCAGCAG` gave a fluorescence intensity of 82.5 a.u.
The fluorescence intensity of `TGCGCAACAACTTTTCACGTGTCCTTATGTCTAGAA` is reported as 1350 a.u.
`AAAGCGGTAATTTGCCAAGTGGGTGCAGATATCTAT` has a fluorescence intensity of 72.3 a.u.
With `AATCATGGAATCCATCACGTGGTCGCAACTGGGGAT` the fluorescence intensity was 5640 a.u.
With `AACCATCCCAAACACAAAGCAATCTTTACTCTACTT` the fluorescence intensity was 65.8 a.u.
`AAATTACTAAGTTGTAGAGTGGGTGACGCCGTATGA` has a fluorescence intensity of 65.8 a.u.
The fluorescence intensity of `TCGCAATATGAATATCACAGAAAAATTAGAGCAACA` is reported as 90.4 a.u.
For `CTTCTGTAAATTTTTCACGTGCCATGACGCGCCCCG`, the fluorescence intensity was 1180 a.u.
`TGTAAATTTTTTTCAGCCACTTTATCGGCACTGGAA` has a fluorescence intensity of 81.4 a.u.
`CTTGACCACTTATTTCACGGGCTCCGTAGCGGACAA` has a fluorescence intensity of 76.3 a.u.
With `CATACCCAACCTTGTCAGGTGGGTGAAGATATTTGT` the fluorescence intensity was 194 a.u.
The fluorescence intensity of `AGGAAAAGTTACCTGCGCATGCCGATGTCTACACTT` is reported as 66.4 a.u.
`GATTTCTTAGCCCATCACGTGCTAACTTTTTGGAAT` has a fluorescence intensity of 6060 a.u.
With `GATTGGGATCCTTGTCATGATGATGCCATAGCCATT` the fluorescence intensity was 67 a.u.

Some of these lines once more (sample 2):
`UCCAUGCAGGUGGGCAUCUUUGGGAAGUGGGGCAAGGGGGGGAUAGGGAGGGGGGUAACACUUUGGGAACAGGUGGUCCCAGGUCGUUUC` gave a log2 enrichment of -0.538.
With `UCAAGUCCUGUGCUACACAUCGUAUGUACCGAAUCGGUUUGGGGUUUGGUUUGGAAAGUAUUAUGUUACGCCGUUCGGAUCUGCACUUCC` the log2 enrichment was -0.273.
`UCCUGUGCUACACAUCGUAUGUACCGAAUCGUGUGUGUGUGUGUGUGUGUGUGUGUGUGAAAGUAUUAUGUUACGCCGUUCGGAUCUGCA` has a log2 enrichment of 0.0869.
For `UUUAUCAUGAGGAGCUCAACGCGCCCAUACGGAGAAACAAAGAAGAGCCCAAGGCCCGGCCCUUGAGAGUAGGUGACACGGAGAAGCCAG`, the log2 enrichment was -0.193.
`GCAGGAAGUAAAAACAAAUGGAAAUGCUUCGGAUAGUGGCAGGGGUGGGGGUUGCUAAGGAAAGGGUGGAAAGGGAGUGGGUAAAGAGUU` has a log2 enrichment of 0.827.
`CCUGUGCUACACAUCGUAUGUACCGAAUCGGGGUUUUUUUGGGGAAAAAGGGGUUUGGGGAAAGUAUUAUGUUACGCCGUUCGGAUCUGC` gave a log2 enrichment of 0.358.
The log2 enrichment of `CCUGUGCUACACAUCGUAUGUACCGAAUCGGGGUUUGGGGAAAAAGGGGAAAAAAAGGGGAAAGUAUUAUGUUACGCCGUUCGGAUCUGC` is reported as 0.81.
The log2 enrichment of `GAAACUACCCGUGUGUAAAAAGAAGAUUGGCUUAAAAUGGCUACUGUGAUGGGAACAGUGUCUUAGGGAGAUGCAGCUUGGACUUGAGGU` is reported as -0.00836.
